{"data": "Measured values pooled from the literature", "Aryl hydrocarbon receptor": "Aryl hydrocarbon receptor (Danio rerio, UniProt Q9YGV3)", "note": "Protocols differ between the studies behind these lines. ± gives the spread as reported.", "UniProt O15305, sequence (whole entry, looked up)": "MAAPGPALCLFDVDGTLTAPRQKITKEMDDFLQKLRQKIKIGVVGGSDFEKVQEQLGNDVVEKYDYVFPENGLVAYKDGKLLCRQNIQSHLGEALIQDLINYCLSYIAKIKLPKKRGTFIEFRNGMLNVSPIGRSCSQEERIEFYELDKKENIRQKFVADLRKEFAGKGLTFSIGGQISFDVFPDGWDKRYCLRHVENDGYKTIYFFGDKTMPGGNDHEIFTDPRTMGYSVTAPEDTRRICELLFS", "UniProt P25963, sequence (whole entry, unmodified, looked up)": "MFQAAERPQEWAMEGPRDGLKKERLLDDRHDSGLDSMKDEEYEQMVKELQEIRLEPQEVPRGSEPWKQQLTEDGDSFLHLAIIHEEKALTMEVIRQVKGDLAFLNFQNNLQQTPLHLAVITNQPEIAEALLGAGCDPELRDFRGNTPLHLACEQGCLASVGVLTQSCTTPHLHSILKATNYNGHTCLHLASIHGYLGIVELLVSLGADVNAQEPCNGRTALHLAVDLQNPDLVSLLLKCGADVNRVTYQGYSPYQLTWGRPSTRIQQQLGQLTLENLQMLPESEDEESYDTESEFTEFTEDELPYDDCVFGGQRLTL", "UniProt P51531, sequence (whole entry, looked up)": "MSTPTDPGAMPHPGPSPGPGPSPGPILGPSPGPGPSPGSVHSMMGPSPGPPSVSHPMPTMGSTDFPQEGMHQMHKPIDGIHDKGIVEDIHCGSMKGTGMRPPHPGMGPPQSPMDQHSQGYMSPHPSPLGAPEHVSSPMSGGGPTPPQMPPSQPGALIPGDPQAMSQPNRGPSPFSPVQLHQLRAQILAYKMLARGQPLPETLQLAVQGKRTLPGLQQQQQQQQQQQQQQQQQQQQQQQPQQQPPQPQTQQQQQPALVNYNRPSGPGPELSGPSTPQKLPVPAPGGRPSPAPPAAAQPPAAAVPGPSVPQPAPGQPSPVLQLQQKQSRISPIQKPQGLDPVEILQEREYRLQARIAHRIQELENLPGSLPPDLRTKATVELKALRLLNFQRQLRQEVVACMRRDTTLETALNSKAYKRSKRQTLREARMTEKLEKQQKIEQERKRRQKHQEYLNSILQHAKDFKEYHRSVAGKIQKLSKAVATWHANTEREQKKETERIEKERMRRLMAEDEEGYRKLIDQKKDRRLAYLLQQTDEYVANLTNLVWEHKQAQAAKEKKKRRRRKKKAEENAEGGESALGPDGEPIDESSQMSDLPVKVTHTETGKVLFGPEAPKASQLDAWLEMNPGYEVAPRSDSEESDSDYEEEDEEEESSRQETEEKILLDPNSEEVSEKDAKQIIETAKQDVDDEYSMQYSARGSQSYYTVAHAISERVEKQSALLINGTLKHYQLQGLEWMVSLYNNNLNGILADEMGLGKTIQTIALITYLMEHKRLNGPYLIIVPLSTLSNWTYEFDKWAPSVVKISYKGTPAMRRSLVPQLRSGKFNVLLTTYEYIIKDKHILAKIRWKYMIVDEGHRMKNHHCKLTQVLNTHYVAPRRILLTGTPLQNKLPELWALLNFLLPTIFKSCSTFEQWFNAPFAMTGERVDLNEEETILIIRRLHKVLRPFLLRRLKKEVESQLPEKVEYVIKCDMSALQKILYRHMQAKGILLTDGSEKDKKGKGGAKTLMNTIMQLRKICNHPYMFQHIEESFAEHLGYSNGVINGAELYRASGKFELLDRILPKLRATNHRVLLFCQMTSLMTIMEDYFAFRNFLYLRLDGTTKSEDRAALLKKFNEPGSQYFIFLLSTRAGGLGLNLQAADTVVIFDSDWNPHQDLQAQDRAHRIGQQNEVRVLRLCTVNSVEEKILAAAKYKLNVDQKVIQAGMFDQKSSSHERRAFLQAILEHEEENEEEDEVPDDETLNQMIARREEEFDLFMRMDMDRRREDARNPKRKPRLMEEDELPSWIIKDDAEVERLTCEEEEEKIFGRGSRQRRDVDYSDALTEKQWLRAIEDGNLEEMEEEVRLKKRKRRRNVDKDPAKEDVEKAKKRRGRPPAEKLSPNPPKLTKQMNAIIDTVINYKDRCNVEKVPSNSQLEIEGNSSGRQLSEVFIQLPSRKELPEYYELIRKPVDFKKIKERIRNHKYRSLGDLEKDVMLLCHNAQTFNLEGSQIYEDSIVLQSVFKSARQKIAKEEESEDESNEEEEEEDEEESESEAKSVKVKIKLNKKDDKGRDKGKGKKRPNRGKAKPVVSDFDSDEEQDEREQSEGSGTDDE", "UniProt P63138, sequence (whole entry, looked up)": "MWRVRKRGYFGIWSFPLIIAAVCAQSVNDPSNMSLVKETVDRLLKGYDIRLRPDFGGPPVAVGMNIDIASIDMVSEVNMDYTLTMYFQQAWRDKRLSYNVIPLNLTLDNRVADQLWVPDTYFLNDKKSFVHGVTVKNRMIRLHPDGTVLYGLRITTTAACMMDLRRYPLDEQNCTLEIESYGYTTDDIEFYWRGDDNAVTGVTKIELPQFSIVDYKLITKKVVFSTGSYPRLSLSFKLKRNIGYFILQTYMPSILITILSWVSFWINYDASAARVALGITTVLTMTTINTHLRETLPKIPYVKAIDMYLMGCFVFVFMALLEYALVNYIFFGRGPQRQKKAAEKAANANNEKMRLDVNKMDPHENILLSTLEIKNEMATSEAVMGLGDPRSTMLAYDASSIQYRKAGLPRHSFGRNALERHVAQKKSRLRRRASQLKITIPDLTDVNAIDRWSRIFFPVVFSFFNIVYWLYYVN", "UniProt P00519, sequence (whole entry, unmodified, looked up)": "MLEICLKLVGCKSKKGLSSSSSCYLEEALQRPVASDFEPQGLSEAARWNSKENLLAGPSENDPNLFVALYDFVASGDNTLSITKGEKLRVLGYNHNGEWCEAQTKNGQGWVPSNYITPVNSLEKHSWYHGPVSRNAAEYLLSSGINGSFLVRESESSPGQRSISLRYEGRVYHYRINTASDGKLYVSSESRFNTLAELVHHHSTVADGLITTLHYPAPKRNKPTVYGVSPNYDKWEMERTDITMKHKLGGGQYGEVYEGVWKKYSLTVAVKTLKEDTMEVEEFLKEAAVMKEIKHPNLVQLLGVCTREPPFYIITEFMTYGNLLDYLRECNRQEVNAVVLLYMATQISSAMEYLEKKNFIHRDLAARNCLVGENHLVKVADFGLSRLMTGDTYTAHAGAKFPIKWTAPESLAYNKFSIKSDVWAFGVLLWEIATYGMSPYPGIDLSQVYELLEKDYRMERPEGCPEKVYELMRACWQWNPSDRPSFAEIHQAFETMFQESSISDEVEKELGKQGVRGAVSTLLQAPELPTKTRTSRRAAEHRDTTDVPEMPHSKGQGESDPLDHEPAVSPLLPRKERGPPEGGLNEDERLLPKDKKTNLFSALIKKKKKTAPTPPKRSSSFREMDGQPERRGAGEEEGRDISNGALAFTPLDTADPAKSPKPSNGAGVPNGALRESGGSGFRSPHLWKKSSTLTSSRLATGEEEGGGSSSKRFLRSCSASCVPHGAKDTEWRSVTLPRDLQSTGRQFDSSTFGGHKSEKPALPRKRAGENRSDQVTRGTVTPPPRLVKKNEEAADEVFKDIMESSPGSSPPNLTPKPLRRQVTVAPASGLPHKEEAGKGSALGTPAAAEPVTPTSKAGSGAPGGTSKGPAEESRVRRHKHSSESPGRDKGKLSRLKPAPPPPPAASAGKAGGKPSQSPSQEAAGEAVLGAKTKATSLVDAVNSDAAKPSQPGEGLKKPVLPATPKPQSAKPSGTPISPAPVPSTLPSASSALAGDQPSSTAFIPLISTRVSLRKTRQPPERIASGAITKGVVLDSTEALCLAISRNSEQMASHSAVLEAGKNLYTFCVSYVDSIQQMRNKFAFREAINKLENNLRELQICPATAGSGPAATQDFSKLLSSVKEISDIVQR", "UniProt P62813, sequence (whole entry, looked up)": "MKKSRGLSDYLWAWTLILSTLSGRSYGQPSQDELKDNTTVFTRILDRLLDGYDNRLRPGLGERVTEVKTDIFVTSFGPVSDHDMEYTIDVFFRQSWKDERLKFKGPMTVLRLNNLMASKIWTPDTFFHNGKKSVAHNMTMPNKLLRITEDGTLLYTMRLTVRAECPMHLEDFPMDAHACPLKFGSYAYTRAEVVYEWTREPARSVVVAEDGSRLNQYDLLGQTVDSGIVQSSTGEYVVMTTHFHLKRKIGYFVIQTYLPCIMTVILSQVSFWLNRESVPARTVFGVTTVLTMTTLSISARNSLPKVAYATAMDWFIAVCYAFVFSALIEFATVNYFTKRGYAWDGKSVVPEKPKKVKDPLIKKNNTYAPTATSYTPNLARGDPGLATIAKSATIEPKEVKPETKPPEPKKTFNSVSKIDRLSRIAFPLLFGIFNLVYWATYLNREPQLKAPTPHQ", "UniProt Q01105, sequence (whole entry, looked up)": "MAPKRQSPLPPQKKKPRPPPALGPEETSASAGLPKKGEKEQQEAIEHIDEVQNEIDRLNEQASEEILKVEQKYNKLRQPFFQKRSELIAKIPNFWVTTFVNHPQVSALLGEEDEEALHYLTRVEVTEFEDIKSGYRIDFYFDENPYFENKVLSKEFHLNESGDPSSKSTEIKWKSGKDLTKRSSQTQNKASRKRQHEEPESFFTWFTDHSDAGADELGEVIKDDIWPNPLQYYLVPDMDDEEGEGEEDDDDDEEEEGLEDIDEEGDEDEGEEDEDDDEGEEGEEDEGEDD", "UniProt P18508, sequence (whole entry, looked up)": "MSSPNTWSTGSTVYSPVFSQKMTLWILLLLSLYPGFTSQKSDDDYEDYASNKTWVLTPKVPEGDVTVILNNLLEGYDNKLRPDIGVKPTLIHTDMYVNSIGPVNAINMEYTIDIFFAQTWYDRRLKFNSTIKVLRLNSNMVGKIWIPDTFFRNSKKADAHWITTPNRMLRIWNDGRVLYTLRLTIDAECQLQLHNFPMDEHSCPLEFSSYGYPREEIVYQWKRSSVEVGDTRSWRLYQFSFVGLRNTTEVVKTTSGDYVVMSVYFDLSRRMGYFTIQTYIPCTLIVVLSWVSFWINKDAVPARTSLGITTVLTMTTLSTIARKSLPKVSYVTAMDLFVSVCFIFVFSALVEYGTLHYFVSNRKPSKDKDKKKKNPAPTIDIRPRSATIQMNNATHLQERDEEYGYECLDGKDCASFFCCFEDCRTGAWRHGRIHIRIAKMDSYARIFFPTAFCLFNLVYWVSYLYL"}
{"Structure (SMILES)": "O=C(COP(=O)(O)O)[C@@H](O)[C@H](O)[C@H](O)COP(=O)(O)O", "target": "Phosphomannomutase 2 (PMM2, Homo sapiens, UniProt O15305)", "test": "thermal proteome profiling", "system": "HepG2 cell lysate", "conditions": "concentration not given, 57 over 37 °C, mean", "scale": "reference: compound over control", "quantity": "thermal stability ratio", "result": 4.79}
{"Structure (SMILES)": "CC[C@]1(O)C[C@@H]2CN(CCc3c([nH]c4ccccc34)[C@@](C(=O)OC)(c3cc4c(cc3OC)N(C)[C@H]3[C@@](O)(C(N)=O)[C@H](O)[C@]5(CC)C=CCN6CC[C@]43[C@@H]65)C2)C1", "target": "GABA-A receptor; alpha-1/beta-2/gamma-2 (Rattus norvegicus, UniProt P18508+P62813+P63138)", "test": "membrane potential, agonist, QP-DHM primary screen", "system": "HEK293 expressing GABAA", "conditions": "10 µM", "scale": "direction not given", "quantity": "normalized score", "result": 0.322}
{"Structure (SMILES)": "c1ccc2c(c1)-c1cccc3c1c-2cc1ccccc13", "target": "Aryl hydrocarbon receptor", "test": "reporter gene, agonist, luciferase reporter", "system": "ZF-4", "conditions": "1111.11 µM", "scale": "reference: vehicle control", "quantity": "fold change", "result": 9.17}
{"Structure (SMILES)": "COCCN1CCN(Cc2ccc(-c3n[nH]c4c3C(=O)c3c(NC(=O)NN5CCOCC5)cccc3-4)cc2)CC1", "target": "Protein kinase 6 (Plasmodium falciparum, UniProt Q8IDW1)", "test": "differential scanning fluorimetry", "conditions": "10 µM", "quantity": "Tm", "result": "40 °C"}
{"Structure (SMILES)": "Cn1c2c(c3ccc(Cl)c(Cl)c31)C(C#N)C1(CCOCC1)NC2=O (stereo not drawn)", "target": "Serine/threonine-protein kinase VRK3 (VRK3, Homo sapiens, UniProt Q8IV63)", "test": "thermal stability, thermal shift", "conditions": "10 µM", "scale": "higher = stronger binding", "quantity": "delta Tm", "result": "-0.1 °C"}
{"Structure (SMILES)": "Nc1nnc(-c2ccccc2O)cc1N1CCN(Cc2ccc(OCCOCCNc3cccc4c3C(=O)N(C3CCC(=O)NC3=O)C4=O)c(F)c2)CC1 (stereo not drawn)", "target": "SWI/SNF-related matrix-associated actin-dependent regulator of chromatin subfamily A member 2 (SMARCA2, Homo sapiens, UniProt P51531)", "test": "immunoblot", "system": "mouse, NCI-H1568 xenograft, tumour lysate", "conditions": "dose not given, 6 h after final dose", "scale": "reference: vehicle", "quantity": "decrease in protein level", "result": "88%"}
{"Structure (SMILES)": "Cc1ccc2ccc3ccc(C)cc3c2c1", "target": "Aryl hydrocarbon receptor (AHR, Homo sapiens, UniProt P35869)", "test": "reporter gene, agonist, yeast LacZ reporter", "system": "Saccharomyces cerevisiae", "quantity": "maximum response", "result": "47.9 LacZ units"}
{"Structure (SMILES)": "CC[C@@H]1[C@H](F)C(=O)N[C@@H]1COc1nccc2cc(C(N)=O)c(OC)cc12", "target": "Serine/threonine-protein kinase tousled-like 1 (TLK1, Homo sapiens, UniProt Q9UKI8)", "test": "ATP-site probe binding, ActivX profiling", "system": "THP-1 cell lysate", "conditions": "0.01 mM, Lys1 site", "quantity": "inhibition", "result": "10.2%"}
{"Structure (SMILES)": "O=C(O)c1ccc(Nc2ncc3c(n2)-c2ccc(Cl)cc2C(c2c(F)cccc2F)=NC3)cc1", "target": "Aurora-A(h)", "test": "kinase activity", "conditions": "1 µM", "quantity": "remaining activity", "result": "0%"}
{"Structure (SMILES)": "CN(C)c1nccc(-c2cnn3ncccc23)n1", "target": "Tyrosine-protein kinase ABL1 (ABL1, Homo sapiens, UniProt P00519, H396P)", "test": "KINOMEscan", "conditions": "1 µM", "scale": "reference: control", "quantity": "remaining binding", "result": "100%"}
{"Structure (SMILES)": "CC[C@H](C)[C@H](NC(=O)[C@H](CCCNC(=N)N)NC(=O)[C@H](Cc1c[nH]cn1)NC(=O)[C@H](CCCNC(=N)N)NC(=O)[C@H](CC(=O)O)NC(=O)[C@@H](N)CC(=O)O)C(=O)N[C@@H](CCC(=O)O)C(=O)N[C@@H](CCC(=O)O)C(=O)N[C@@H](CCCCN)C(=O)N[C@@H](CCCNC(=N)N)C(=O)N[C@@H](CCCCN)C(=O)N[C@@H](CCCNC(=N)N)C(=O)N[C@H](C(=O)N[C@@H](Cc1ccc(O)cc1)C(=O)N[C@@H](CCC(=O)O)C(=O)N[C@H](C(=O)N[C@@H](Cc1ccccc1)C(=O)N[C@@H](CCCCN)C(=O)N[C@@H](CO)C(=O)N[C@H](C(=O)N[C@@H](CCSC)C(=O)N[C@@H](CCCCN)C(=O)N[C@@H](CCCCN)C(=O)N[C@@H](CO)C(=O)N1CCC[C@H]1C(=O)N[C@@H](Cc1ccccc1)C(=O)N[C@@H](CC(N)=O)C(=O)NCC(=O)N1CCC[C@H]1C(=O)O)[C@@H](C)CC)[C@@H](C)O)[C@@H](C)O", "target": "NF-kappa-B inhibitor alpha (Homo sapiens, UniProt P25963)", "test": "binding, ITC", "conditions": "293 K, 150 mM NaCl", "quantity": "ΔH", "result": "-4.3 ± 0.2 kcal/mol"}
{"Structure (SMILES)": "O=c1nc(SCc2cc(F)cc(C(F)(F)F)c2)nc(SCc2ccc3sccc3c2)[nH]1", "target": "DNA topoisomerase 2-alpha (TOP2A, Homo sapiens, UniProt P11388)", "test": "decatenation", "conditions": "125 µM", "quantity": "mean decatenated DNA", "result": "1.73%"}
{"Structure (SMILES)": "CCCCCCCCCCCCC/C=C/[C@@H](O)[C@H](CO)NC(=O)CCCCCCCCCCCCC", "target": "Protein SET (SET, Homo sapiens, UniProt Q01105)", "test": "lipid binding, GFP pull-down LC-MS/MS", "system": "A549 overexpressing GFP-tagged protein", "conditions": "ER-targeted construct", "scale": "reference: eluate plus flow-through", "quantity": "lipid fraction bound", "result": "8.6%"}
{"Structure (SMILES)": "Nc1ccc2ccc3cccc4ccc1c2c34", "target": "Aryl hydrocarbon receptor", "test": "reporter gene, agonist, luciferase reporter", "system": "ZF-4", "conditions": "1111.11 µM", "scale": "reference: vehicle control", "quantity": "fold change", "result": 1.96}
{"Structure (SMILES)": "NCCCS(=O)(=O)O", "target": "Sodium- and chloride-dependent taurine transporter (SLC6A6, Homo sapiens, UniProt P31641, Y138A)", "test": "binding, microscale thermophoresis", "conditions": "122 nM, room temperature, added: 50 nM labelled protein", "scale": "higher = more binding", "quantity": "normalised MST signal", "result": -0.0762}
{"note": "Some of these lines once more:"}
{"Structure (SMILES)": "CCCCCCCCCCCCC/C=C/[C@@H](O)[C@H](CO)NC(=O)CCCCCCCCCCCCC", "target": "Protein SET (SET, Homo sapiens, UniProt Q01105)", "test": "lipid binding, GFP pull-down LC-MS/MS", "system": "A549 overexpressing GFP-tagged protein", "conditions": "ER-targeted construct", "scale": "reference: eluate plus flow-through", "quantity": "lipid fraction bound", "result": "8.6%"}
{"Structure (SMILES)": "Nc1ccc2ccc3cccc4ccc1c2c34", "target": "Aryl hydrocarbon receptor", "test": "reporter gene, agonist, luciferase reporter", "system": "ZF-4", "conditions": "1111.11 µM", "scale": "reference: vehicle control", "quantity": "fold change", "result": 1.96}
